Published values pooled from the literature.
Each numbered part is a random draw from the data of one study; scales do not carry over between parts. Several values in a cell are separate wells, animals, samples, runs or records. Changes are numbered by the printed parent chain.

Set 1
Target: Sal-like protein 4, full length isoform A (SALL4, Homo sapiens, UniProt Q9UJQ4, residues 1-1053)
Chain of UniProt Q9UJQ4 (whole entry, looked up): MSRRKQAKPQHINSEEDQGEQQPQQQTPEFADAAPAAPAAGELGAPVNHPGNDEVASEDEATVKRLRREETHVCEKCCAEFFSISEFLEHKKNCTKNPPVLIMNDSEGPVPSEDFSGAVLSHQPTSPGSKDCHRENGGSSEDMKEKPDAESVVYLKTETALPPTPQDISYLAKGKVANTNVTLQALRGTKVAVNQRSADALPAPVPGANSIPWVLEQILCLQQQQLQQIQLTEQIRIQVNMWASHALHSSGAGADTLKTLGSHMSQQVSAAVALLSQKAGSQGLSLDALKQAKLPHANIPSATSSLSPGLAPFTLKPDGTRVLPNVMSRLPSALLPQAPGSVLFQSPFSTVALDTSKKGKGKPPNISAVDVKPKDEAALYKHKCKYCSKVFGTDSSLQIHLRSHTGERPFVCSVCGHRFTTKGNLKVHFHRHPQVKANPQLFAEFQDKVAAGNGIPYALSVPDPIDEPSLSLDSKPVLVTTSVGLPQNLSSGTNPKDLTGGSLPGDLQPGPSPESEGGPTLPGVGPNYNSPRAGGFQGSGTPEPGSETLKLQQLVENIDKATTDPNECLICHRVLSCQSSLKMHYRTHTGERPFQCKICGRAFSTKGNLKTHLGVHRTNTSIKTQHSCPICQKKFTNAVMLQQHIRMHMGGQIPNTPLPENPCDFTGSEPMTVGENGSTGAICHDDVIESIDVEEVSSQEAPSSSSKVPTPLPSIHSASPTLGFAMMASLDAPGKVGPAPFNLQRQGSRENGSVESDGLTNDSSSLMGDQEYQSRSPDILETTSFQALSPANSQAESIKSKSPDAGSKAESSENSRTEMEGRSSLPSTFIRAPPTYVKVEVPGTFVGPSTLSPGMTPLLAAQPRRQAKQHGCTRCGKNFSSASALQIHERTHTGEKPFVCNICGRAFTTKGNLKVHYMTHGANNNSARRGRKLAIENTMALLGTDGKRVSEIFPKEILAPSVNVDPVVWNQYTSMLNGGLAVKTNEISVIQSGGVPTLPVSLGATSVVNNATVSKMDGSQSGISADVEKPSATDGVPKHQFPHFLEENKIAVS
Method: universal PBM
Form: double-stranded DNA, one strand shown
Medium: in vitro
Tested at: 600 nM
Notes: 8-mer, flanks averaged, mean of replicates
Direction: higher = stronger binding
Endpoint: E-score
Oligonucleotide = CTCCATAA; value = 0.262
Oligonucleotide = GAGGTCCA; value = -0.237
Oligonucleotide = AGCTGGAA; value = -0.098
Oligonucleotide = GGGGATTA; value = -0.0917
Oligonucleotide = GACCCATC; value = -0.178
Oligonucleotide = ACGATAGC; value = 0.0452
Oligonucleotide = TTAATGAA; value = 0.364

Set 2
Target: CCND2, cyclin fold, Cln2 fusion (human)
Method: yeast growth competition, sequencing
Medium: yeast
Notes: weak parent motif
Baseline: not given
Direction: higher = stronger binding
Endpoint: normalised enrichment score
Parent: CDC6 docking peptide (human); TLKGRRLVFDNQL; partner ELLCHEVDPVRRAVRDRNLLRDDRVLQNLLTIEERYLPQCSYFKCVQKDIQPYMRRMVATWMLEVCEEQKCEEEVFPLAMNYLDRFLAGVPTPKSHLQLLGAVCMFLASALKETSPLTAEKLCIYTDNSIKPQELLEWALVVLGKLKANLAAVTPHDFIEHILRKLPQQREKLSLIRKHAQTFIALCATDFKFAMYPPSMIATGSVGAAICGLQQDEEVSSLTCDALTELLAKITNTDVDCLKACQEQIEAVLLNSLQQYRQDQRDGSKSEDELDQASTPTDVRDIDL
Variant = Q12Y; value = 0.695
Variant = G4L; value = -0.173
Variant = L13I; value = 0.138
Variant = K3G; value = -0.126
Variant = L13P; value = 0.527
Variant = L2A; value = -0.0904
Variant = V8M; value = -0.108

Set 3
Target: Histone acetyltransferase KAT6A, both winged helices, GST fusion (KAT6A, Homo sapiens, UniProt Q92794, residues 1-181)
Method: protein binding microarray
Form: double-stranded DNA, one strand shown
Medium: in vitro
Tested at: not given
Notes: 8-mer, flanks averaged, mean of 2 arrays, mostly near background
Baseline: not given
Direction: higher = stronger binding
Endpoint: E-score
Residues (chain): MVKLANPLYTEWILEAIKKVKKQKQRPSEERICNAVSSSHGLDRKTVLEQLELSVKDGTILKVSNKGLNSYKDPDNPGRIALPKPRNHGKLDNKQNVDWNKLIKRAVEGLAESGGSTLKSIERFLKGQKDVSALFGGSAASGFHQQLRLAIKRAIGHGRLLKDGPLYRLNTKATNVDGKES
Oligonucleotide = CGCTTCAG; value = 0.00556
Oligonucleotide = ACGTCACC; value = -0.0726
Oligonucleotide = AACGATAC; value = -0.196
Oligonucleotide = CGATAAAA; value = 0.0736
Oligonucleotide = ACTTACGA; value = -0.0465
Oligonucleotide = ATACTAAC; value = -0.104
Oligonucleotide = TTGCTAAA; value = -0.105
Oligonucleotide = AAAGATTC; value = -0.0744
Oligonucleotide = GCCGGAGC; value = 0.249
Oligonucleotide = AAGTAATC; value = -0.133

Further values, each from its own experiment
Molecule = PhoQ, residues 284 288 289 292 302 303 DDMDFR; target = PhoP, residues 12 14 15 18 19 LWHSL (Escherichia coli, UniProt P23836); test = Sort-seq, measured: YFP reporter; system = E. coli; setting = PhoQ-PhoP variant library, with: 10 µM Mg2+; how to read = baseline: high Mg2+ state, higher = stronger signaling; endpoint = fold induction; value = 0.681 and 0.657

Excerpt of the above (set 2):
Variant = Q12Y; value = 0.695
Variant = L13I; value = 0.138
Variant = K3G; value = -0.126
Variant = L2A; value = -0.0904
